Measurements pooled from the literature.
Each numbered part is a random draw from the data of one study; scales do not carry over between parts.

Study 1
Target: DNA polymerase theta, ATPase domain (POLQ, Homo sapiens, UniProt O75417)
UniProt O75417, sequence (whole entry, unmodified, looked up): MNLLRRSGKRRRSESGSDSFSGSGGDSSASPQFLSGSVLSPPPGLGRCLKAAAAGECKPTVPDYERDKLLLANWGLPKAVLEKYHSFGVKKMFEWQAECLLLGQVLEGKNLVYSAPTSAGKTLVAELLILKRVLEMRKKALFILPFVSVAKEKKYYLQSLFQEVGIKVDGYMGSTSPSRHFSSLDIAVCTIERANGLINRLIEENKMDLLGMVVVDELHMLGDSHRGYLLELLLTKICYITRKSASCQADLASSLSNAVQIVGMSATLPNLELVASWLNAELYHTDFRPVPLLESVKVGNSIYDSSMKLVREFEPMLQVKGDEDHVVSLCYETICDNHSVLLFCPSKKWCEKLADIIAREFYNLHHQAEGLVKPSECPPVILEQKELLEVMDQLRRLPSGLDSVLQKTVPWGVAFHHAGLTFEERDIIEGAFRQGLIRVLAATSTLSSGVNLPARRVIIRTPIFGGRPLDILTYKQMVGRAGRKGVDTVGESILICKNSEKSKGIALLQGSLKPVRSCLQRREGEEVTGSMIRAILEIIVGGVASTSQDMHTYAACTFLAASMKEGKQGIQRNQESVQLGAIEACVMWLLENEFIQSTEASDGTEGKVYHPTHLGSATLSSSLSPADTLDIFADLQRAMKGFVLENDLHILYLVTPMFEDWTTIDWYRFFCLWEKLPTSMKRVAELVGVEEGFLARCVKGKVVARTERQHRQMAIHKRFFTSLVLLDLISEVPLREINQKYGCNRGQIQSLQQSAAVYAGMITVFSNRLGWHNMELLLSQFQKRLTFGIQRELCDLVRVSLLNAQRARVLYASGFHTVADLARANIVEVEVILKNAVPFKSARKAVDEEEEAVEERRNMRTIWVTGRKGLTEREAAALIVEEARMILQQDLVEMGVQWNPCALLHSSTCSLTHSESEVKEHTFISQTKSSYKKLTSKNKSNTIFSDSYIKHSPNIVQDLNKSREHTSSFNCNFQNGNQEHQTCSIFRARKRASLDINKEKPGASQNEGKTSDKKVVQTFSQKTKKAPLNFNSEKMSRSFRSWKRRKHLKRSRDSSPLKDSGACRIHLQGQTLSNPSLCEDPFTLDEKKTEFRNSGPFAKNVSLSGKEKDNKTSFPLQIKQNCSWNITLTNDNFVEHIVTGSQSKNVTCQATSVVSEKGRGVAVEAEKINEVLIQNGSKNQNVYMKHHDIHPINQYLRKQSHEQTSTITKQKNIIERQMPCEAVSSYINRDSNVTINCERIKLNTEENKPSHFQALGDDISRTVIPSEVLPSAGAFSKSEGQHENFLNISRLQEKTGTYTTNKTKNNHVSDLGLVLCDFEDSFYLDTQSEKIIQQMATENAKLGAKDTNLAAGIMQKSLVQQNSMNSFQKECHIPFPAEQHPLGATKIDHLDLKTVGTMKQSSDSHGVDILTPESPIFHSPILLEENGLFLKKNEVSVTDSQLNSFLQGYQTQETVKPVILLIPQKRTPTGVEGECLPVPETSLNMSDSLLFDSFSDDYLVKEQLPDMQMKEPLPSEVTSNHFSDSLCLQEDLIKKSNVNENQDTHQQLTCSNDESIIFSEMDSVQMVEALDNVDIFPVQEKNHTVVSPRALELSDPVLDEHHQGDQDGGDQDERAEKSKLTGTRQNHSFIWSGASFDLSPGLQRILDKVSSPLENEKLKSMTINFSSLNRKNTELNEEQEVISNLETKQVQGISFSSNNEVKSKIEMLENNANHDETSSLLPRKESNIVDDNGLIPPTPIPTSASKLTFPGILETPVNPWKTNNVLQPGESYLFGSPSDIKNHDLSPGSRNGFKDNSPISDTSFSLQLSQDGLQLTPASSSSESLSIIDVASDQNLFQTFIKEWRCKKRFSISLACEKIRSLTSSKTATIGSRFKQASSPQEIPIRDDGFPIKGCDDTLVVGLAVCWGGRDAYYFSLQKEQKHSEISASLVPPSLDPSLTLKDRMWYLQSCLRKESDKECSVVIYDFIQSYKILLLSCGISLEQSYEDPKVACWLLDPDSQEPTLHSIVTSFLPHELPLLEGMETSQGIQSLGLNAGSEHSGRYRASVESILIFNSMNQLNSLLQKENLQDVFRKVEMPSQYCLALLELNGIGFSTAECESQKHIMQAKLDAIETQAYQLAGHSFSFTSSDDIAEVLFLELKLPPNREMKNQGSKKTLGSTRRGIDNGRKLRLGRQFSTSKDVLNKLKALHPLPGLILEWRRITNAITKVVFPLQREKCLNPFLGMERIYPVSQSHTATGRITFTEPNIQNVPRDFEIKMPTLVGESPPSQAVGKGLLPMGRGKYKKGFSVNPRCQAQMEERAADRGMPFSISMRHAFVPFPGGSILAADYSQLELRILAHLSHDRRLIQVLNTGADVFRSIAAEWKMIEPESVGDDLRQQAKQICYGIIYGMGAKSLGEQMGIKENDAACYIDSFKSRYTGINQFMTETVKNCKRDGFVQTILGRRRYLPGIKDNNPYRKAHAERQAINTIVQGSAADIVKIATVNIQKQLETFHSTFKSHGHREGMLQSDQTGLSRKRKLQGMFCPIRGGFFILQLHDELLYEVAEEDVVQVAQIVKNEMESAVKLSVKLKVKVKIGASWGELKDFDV
Read-out: enzyme activity
Action: inhibitor
Tested at: 77 µM
Reference: untreated
Endpoint: remaining activity
CN(C)[C@@H]1C(O)=C(C(=O)NCNCCCC[C@H](N)C(=O)O)C(=O)[C@@]2(O)C(O)=C3C(=O)c4c(O)cccc4[C@@](C)(O)[C@H]3C[C@@H]12: 101%
CN(C)CC(=O)Nc1ccc2[nH]c(=O)c3ccccc3c2c1: 102%
COc1ccccc1N1CCN(CCN(C(=O)c2ccc(F)cc2)c2ccccn2)CC1: 101%
Nc1ncnc2c1ncn2[C@@H]1O[C@H](COP(=O)(O)OP(=O)(O)OP(=O)(O)OP(=O)(O)OC[C@H]2O[C@@H](n3cnc4c(N)ncnc43)[C@H](O)[C@@H]2O)[C@@H](O)[C@H]1O: 99.2%
OC[C@@H](O)[C@@H](O)CO: 95%
O=c1c(-c2ccc(F)cc2)c(-c2ccncc2)[nH]n1-c1ccc(Cl)cc1: 110%
Cc1ccccc1OCC(O)CO (centres unmarked): 110%
CNCCC=C1c2ccccc2C=Cc2ccccc21: 109%

Study 2
Cell line: normal-adjacent organoid sample G
Method: CellTiter-Glo
Tested at: 0.1 µM
Setting: replicate mean
Reference: DMSO
Endpoint: viability
Nc1cnc(N2CCc3cc(S(=O)(=O)Nc4c(F)cc(Cl)cc4F)cc(N4CCCC4=O)c32)nc1: 103%
COc1cccc(CNC(=O)c2nc3scc(COCc4ccc(C(=O)O)cc4)c3c(=O)[nH]2)c1: 113%
O=S(=O)(NC1CCC(c2cc(F)ccc2F)(S(=O)(=O)c2ccc(Cl)cc2)CC1)C(F)(F)F (centres unmarked): 117%
CN(C)C(=O)Cn1cc(-c2nc([C@@](C)(c3ccc(-c4cnc(N)nc4)cc3)C3CC3)no2)cn1: 108%
C[C@@H]1CN(c2cc(-c3n[nH]c4ccc(OC5(C)CC5)cc34)ncn2)C[C@H](C)O1: 108%
CCCCN(CCCC)C(=O)CN1C[C@H](c2cc(OC)c3c(c2)OCO3)[C@@H](C(=O)O)[C@@H]1CC(C)(C)CCC: 105%
Cc1c(NC(=O)c2cc(C(N)=O)nc3cc(F)ccc23)c(C(F)(F)F)nn1Cc1ccc(C(C)(C)C)cc1: 98.8%
O=C(Nc1ccc(-n2nc(-c3cccnc3)cc2C(F)(F)F)cn1)c1ccc(-c2ccccc2)c(F)c1: 120%
CNCc1ccccc1-c1csc([C@H](C)Nc2nc(C)nc3cc(OC)c(OC)cc23)c1: 106%
Cc1cc(C)c(-n2ccn3nc(-c4cccnc4)cc23)cc1NC(=O)c1cc(C#N)cc(S(F)(F)(F)(F)F)c1: 110%
O=C(NCc1ncc(C(F)(F)F)cc1Cl)c1ccc2c(c1)C1(CCS(=O)(=O)CC1)[C@H](C1CC1)N2S(=O)(=O)c1ccc(F)cc1: 104%
Cc1ccc(-c2cnc([C@@]3(O)CC[C@H](C(=O)O)C(C)(C)C3)s2)cc1Nc1cccc(C(F)(F)F)n1: 113%
Cc1cc(Nc2nccc(C)n2)cc(-c2cnc([C@@]3(O)CC[C@H](C(=O)O)C(C)(C)C3)s2)c1: 107%
O=C(O)[C@H]1[C@H](Cn2nnc3ccccc3c2=O)CC[C@@H]1C(=O)c1ccc(OCCC2CCOCC2)cc1: 140%
CC(C)(C)OC(=O)N1CCCC1CNC1CCC(c2cc(F)ccc2F)(S(=O)(=O)c2ccc(Cl)cc2)CC1 (centres unmarked): 118%
CCS(=O)(=O)c1cc2cc(C[C@@](O)(CC(C)(C)c3ccc(F)cc3C(N)=O)C(F)(F)F)[nH]c2cn1: 102%
CCOC(=O)c1cc2cc(-c3cc(C(=O)NCc4ccc(C(=O)O)cc4)nn3C)ccc2[nH]1: 92.4%
N#Cc1ccc(Nc2ccc3[nH]c(=O)[nH]c3c2)c(Cl)c1: 117%
Cc1nc(Cc2cccc(C(F)(F)F)c2)sc1-c1ccc(C(N)=O)nc1: 107%
O=C(N[C@H]1CCCCC/C=C\C2C[C@@]2(C(=O)O)NC(=O)[C@@H]2C[C@@H](Oc3ccncc3)CN2C1=O)OC1CCCC1 (some centres unmarked): 140%
CNC(=O)c1ccc(Nc2ncc(C(F)(F)F)c(NCc3nccnc3N(C)S(C)(=O)=O)n2)cc1: 84.3%

Study 3
Organism: Sarcocystis neurona
Read-out: parasite growth
Tested at: 10 µM
Time: 96 h
Endpoint: inhibition
CC(C[N+](C)(C)C)OC(N)=O (centres unmarked): -12.1%
COc1c2occc2cc2ccc(=O)oc12: -12.5%
CN(C)c1nc(N(C)C)nc(N(C)C)n1: -17.9%
CN(C)CCC[C@@]1(c2ccc(F)cc2)OCc2cc(C#N)ccc21: -3.7%
CN(C)CC/C=C1/c2ccccc2COc2ccc(CC(=O)O)cc21: -2.9%
CC(C)[C@H]1CC[C@H](C(=O)N[C@H](Cc2ccccc2)C(=O)O)CC1: -6.2%
C[C@]12CCC(=O)C=C1CC[C@@H]1[C@@H]2[C@@H](O)C[C@@]2(C)[C@H]1CC[C@]2(O)C(=O)CO: 0.9%
CC(C)NCC(O)COc1ccc(COCCOC(C)C)cc1 (centres unmarked): -13.7%

Study 4
Target: Beta-1 adrenergic receptor (ADRB1, Homo sapiens, UniProt P08588)
UniProt P08588, sequence (whole entry, looked up): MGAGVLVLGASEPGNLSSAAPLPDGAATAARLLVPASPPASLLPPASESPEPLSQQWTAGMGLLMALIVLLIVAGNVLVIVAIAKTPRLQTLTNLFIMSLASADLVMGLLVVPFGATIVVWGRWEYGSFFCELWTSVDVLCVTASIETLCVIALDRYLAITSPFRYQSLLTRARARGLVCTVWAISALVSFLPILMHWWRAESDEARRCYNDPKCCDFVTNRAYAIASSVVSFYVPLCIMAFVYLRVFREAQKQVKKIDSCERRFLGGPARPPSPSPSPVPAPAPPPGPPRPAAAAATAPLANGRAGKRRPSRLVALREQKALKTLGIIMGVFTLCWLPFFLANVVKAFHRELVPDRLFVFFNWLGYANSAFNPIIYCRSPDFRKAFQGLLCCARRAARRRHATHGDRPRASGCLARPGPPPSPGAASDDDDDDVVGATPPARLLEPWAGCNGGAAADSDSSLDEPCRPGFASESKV
Action: antagonist
Endpoint: IC50
CN(CC(O)COc1cccc(CNCCc2ccc(F)cc2)c1)C1CCCCC1 (centres unmarked): ≥ 100 µM
COc1ccc(CC(=O)Nc2ccc([C@@H](O)[C@H]3COCC(=O)N3Cc3ccccc3OC)cc2)cc1: ≥ 100 µM
Nc1nc(N)c2nc(-c3cccc(O)c3)cnc2n1: ≥ 100 µM
N#CC(c1nc2ccccc2s1)c1cnn(-c2ccccc2)c(=O)c1Cl (centres unmarked): ≥ 100 µM
COc1ccccc1N1CCN([S+](=O)([O-])c2ccc(Cl)c(C)c2)CC1: ≥ 100 µM
CC1(C)C=Cc2cc3ccc(=O)oc3cc2O1: ≥ 100 µM
c1ccc2c(-c3cnn4cc(-c5ccc(N6CCNCC6)cc5)cnc34)ccnc2c1: 3.98 µM

Excerpt of the above (study 3):
CN(C)c1nc(N(C)C)nc(N(C)C)n1: -17.9%
CN(C)CCC[C@@]1(c2ccc(F)cc2)OCc2cc(C#N)ccc21: -3.7%
C[C@]12CCC(=O)C=C1CC[C@@H]1[C@@H]2[C@@H](O)C[C@@]2(C)[C@H]1CC[C@]2(O)C(=O)CO: 0.9%
CC(C)[C@H]1CC[C@H](C(=O)N[C@H](Cc2ccccc2)C(=O)O)CC1: -6.2%
CN(C)CC/C=C1/c2ccccc2COc2ccc(CC(=O)O)cc21: -2.9%
